Measurements of several laboratories.
Compare with care: the assays were run in different laboratories. Numbers after ± are the reported error.

| SMILES | test | test system | conditions | Cmax |
| --- | --- | --- | --- | --- |
| CCOc1ccc(Cc2cc([C@@H]3O[C@H](SC)[C@@H](O)[C@H](O)[C@H]3O)ccc2Cl)cc1 |  | human, plasma | oral, 150 mg, range of daily means | 82.5 to 115 ng/mL |
| COc1cc2ncnc(Nc3ccc(F)c(Cl)c3)c2cc1OCCCN1CCOCC1 |  | human, plasma | oral, 250 mg, with: vorinostat 300 mg | 240 ± 98 ng/mL |
| CCc1cc2c(cc1N1CCC(N3CCOCC3)CC1)C(C)(C)c1[nH]c3cc(C#N)ccc3c1C2=O | LC-MS, noncompartmental | human patients under sample A years, plasma | oral, 600 mg/day, cycle 1 day 21, geometric mean | 677 ng/mL |
| NS(=O)(=O)OC[C@@H]1C[C@@H](n2ccc3c(N[C@H]4CCc5ccccc54)ncnc32)C[C@@H]1O |  | human | intravenous, 15 mg/m^2, day 1 | 121 ng/mL |
| CNCc1ccc(-c2[nH]c3cc(F)cc4c3c2CCNC4=O)cc1 |  | human patients, plasma | oral, 840 mg twice daily, day 1, arithmetic mean | 1380 ng/mL |
| CCOCCn1c(C2CCN(CCc3ccc(C(C)(C)C(=O)O)cc3)CC2)nc2ccccc21 |  | human, moderate renal insufficiency, plasma | oral, 20 mg, geometric LS mean | 270 ng/mL |
| CCCCCCCCCCCCCCC[C@H](O)[C@@H](N)CO |  | human, phase I, plasma | intravenous, 480 mg/m^2, day 1, monotherapy | 15200 nM |
| CS(=O)(=O)CCNCc1ccc(-c2ccc3ncnc(Nc4ccc(OCc5cccc(F)c5)c(Cl)c4)c3c2)o1 |  | human, plasma | oral, 1250 mg | 1890 ng/mL |
| CC(C)NC[C@@H](C(=O)N1CCN(c2ncnc3c2[C@H](C)C[C@H]3O)CC1)c1ccc(Cl)cc1 |  | human, matched normal hepatic function (Child-Pugh), plasma | oral, 100 mg single, reference geometric mean, vs Moderate | 48.4 ng/mL |
| C=C(C)[C@@H]1CC[C@]2(NCCN3CCS(=O)(=O)CC3)CC[C@]3(C)[C@H](CC[C@@H]4[C@@]5(C)CC=C(C6=CC[C@@](CF)(C(=O)O)CC6)C(C)(C)[C@@H]5CC[C@]43C)[C@@H]12 |  | human, plasma | oral, 200 mg once daily, day 14 | 1400 ng/mL |
| Cc1nc(-c2ccc(OCC(C)C)c(C#N)c2)sc1C(=O)O |  | human, plasma | oral, 80 mg daily, day 7, geometric mean, with: verinurad 9 mg | 2460 ng/mL |
| C[C@H](N)C(=O)N1C[C@H](CCCB(O)O)[C@](N)(C(=O)O)C1 |  | human patients, plasma | oral, 100 mg single dose, cycle 1 day 1 | 1480 ± 491 ng/mL |
| C#Cc1cccc(Nc2ncnc3cc(OCCOC)c(OCCOC)cc23)c1 |  | human, plasma | oral, day 29, normalised to 150 mg dose, with: dovitinib | 317 ± 303 ng/mL |
| CCOc1cc([C@@H](CS(C)(=O)=O)N2C(=O)c3cccc(NC(C)=O)c3C2=O)ccc1O[C@@H]1O[C@H](C(=O)O)[C@@H](O)[C@H](O)[C@H]1O |  | healthy human controls, plasma | oral, 30 mg apremilast, matched to mild impairment | 156 ng/mL |
| Cc1nc(-c2ccc(OCC(C)C)c(C#N)c2)sc1C(=O)O |  | human, plasma | oral, 40 mg, with: verinurad 10 mg | 628 ng/mL |
| C[C@@H](Oc1cc(-c2cnn(C3CCNCC3)c2)cnc1N)c1c(Cl)ccc(F)c1Cl |  | healthy human, plasma | oral, 250 mg single fasted, geometric mean | 118 ng/mL |
| CCn1c(=O)c2c(nc(/C=C/c3ccc(OC)c(OC)c3)n2C)n(CC)c1=O |  | healthy human, plasma | oral, 40 mg single dose, geometric mean, with: rifampin 600 mg/day steady state | 94.8 ng/mL |
| COc1ccc2nc([S@@+]([O-])Cc3ncc(C)c(OC)c3C)[nH]c2c1 |  | human, CYP2C19 rapid metabolizers, plasma | oral, 40 mg/day, day 1 | 3340 ± 3110 ng/mL |
| Cc1[nH]c(/C=C2\C(=O)Nc3ccccc32)c(C)c1CCC(=O)O |  | human patients | oral, 400 mg/m^2 three times daily, after meal, dose 82 | 6050 ± 2410 ng/mL |
| CNC(=O)c1ccc(-c2cnc3ncc(Cc4ccc5ncccc5c4)n3n2)cc1F |  | healthy human subjects, plasma | oral, 400 mg, geometric mean, alone | 3070 ng/mL |
| Cn1ncc(Cl)c1-c1cc(C(=O)N[C@H](CN)Cc2ccc(F)c(F)c2)oc1Cl |  | human patients, plasma | oral, 10 mg, single dose, fasting | 9 to 10.5 ng/mL |
| CN1CC[C@H](c2c(O)cc(O)c3c(=O)cc(-c4ccccc4Cl)oc23)[C@H](O)C1 | HPLC-MS/MS | human, plasma | intravenous, 40 mg/m^2, cycle 1, mean, with: irinotecan 180 mg/m^2 | 1650 nM |
| CS(=O)(=O)n1cc2c(n1)CN([C@H]1CO[C@H](c3cc(F)ccc3F)[C@@H](N)C1)C2 |  | healthy male human, plasma | oral, 100 mg once weekly, day 15, fasted, geometric mean | 2400 nM |
| CNC(=O)c1cc(Oc2ccc(NC(=O)Nc3ccc(Cl)c(C(F)(F)F)c3)cc2)ccn1 |  | human patients, plasma | oral, 400 mg twice daily, day -1, alone, steady state | 12500 nM |
| COCCCCn1c(C(=O)N(CC(C)C)[C@@H]2CNC[C@H](C(=O)N3CCOCC3)C2)nc2ccccc21 |  | human, elderly, plasma | oral, 80 mg once daily, day 1, mean | 959 ng/mL |
| C=CC(=O)N1C[C@H](Nc2ncnc3[nH]ccc23)CC[C@@H]1C | adjusted geometric mean | human, plasma | oral, 50 mg single dose, without rifampicin | 272 ng/mL |
| CCOc1cc([C@@H](CS(C)(=O)=O)N2C(=O)c3cccc(NC(C)=O)c3C2=O)ccc1OC |  | healthy human, male, plasma | oral, 20 mg single dose, without ketoconazole | 236 ng/mL |

| SMILES | test | test system | conditions | Cmax |
| --- | --- | --- | --- | --- |
| CCCCC1(CCCC)CN(c2ccccc2)c2cc(SC)c(OCC(=O)N[C@@H](C(=O)NCC(=O)O)c3ccccc3)cc2S(=O)(=O)C1 | LC-MS/MS | human, plasma | oral, 2.5 mg, single dose, fasted | 0.413 ng/mL |
| CC(C)(Sc1ccncc1-c1ccc(C#N)c2ccccc12)C(=O)O |  | human male, plasma | oral, 2.5 mg once daily, day 7 or 21, arithmetic mean | 3.84 ng/mL |
| CS(=O)(=O)Nc1ccc(C(=O)O[C@@H](Cc2c(Cl)c[n+]([O-])cc2Cl)c2ccc(OC(F)F)c(OCC3CC3)c2)cc1OCC1CC1 |  | human, plasma | inhaled, 1600 µg once daily, day 7, single-dose dry powder inhaler | 1.97 ng/mL |
| O=C(CCCCCCC(=O)Nc1ccccc1)NO |  | human, serum | oral, 100 mg three times daily, 14 days, with: idarubicin | 554 nM |
| Cn1c(Cn2ccc(C(F)(F)F)c(Oc3cc(Cl)cc(C#N)c3)c2=O)n[nH]c1=O |  | human, plasma | oral, 100 mg once daily, geometric mean, with: islatravir 2.25 mg once daily | 2710 nM |
| NC1(c2ccc(-c3nc4ccn5c(=O)[nH]nc5c4cc3-c3ccccc3)cc2)CCC1 |  | human | oral, 135 mg, monotherapy, expansion | 261 ± 81.2 ng/mL |
| CCCCC[C@H](O)CC[C@@H]1[C@H]2Cc3cccc(OCC(=O)O)c3C[C@H]2C[C@H]1O |  | human Japanese PAH patients, plasma | inhalation, 54 µg four times daily, week 12 | 1.03 ± 0.54 ng/mL |
| CC(C)(Sc1ccncc1-c1ccc(C#N)c2ccccc12)C(=O)O |  | human, male, Japanese, plasma | oral, 2.5 mg, day 6, fed, single dose | 5.66 ng/mL |
| CCOc1ccc(Cc2cc([C@]34OC[C@](CO)(O3)[C@@H](O)[C@H](O)[C@H]4O)ccc2Cl)cc1 |  | human, plasma | oral, 15 mg, with: sitagliptin 100 mg | 266 ng/mL |
| Cc1cccc(C)c1OCC(=O)N[C@@H](Cc1ccccc1)[C@@H](O)C[C@H](Cc1ccccc1)NC(=O)[C@H](C(C)C)N1CCCNC1=O |  | HIV/HCV coinfected humans, plasma | oral, dose not given, steady-state median, with: lopinavir/ritonavir twice daily | 11000 ng/mL |
| COc1c(OCCCN2CCOCC2)ccc2c1N=C(NC(=O)c1cnc(N)nc1)N1CCN=C21 |  | human cancer patients, plasma | intravenous, 0.4 mg/kg weekly, cycle 1 day 1, compound alone, geometric mean | 118 ng/mL |
| COc1cc(Nc2ncc3c(n2)-c2ccc(Cl)cc2C(c2c(F)cccc2OC)=NC3)ccc1C(=O)O |  | human, plasma | oral, 20 mg twice daily, day 7, steady state geometric mean | 1280 nM |
| C#C[C@]1(CO)O[C@@H](n2cnc3c(N)nc(F)nc32)C[C@@H]1O |  | human, plasma | oral, 30 mg once weekly, week 1 | 647 nM |
| Cc1ccc(NC(=O)c2ccc(CN3CCN(C)CC3)cc2)cc1Nc1nccc(-c2cncc(-c3oncc3C)c2)n1 |  | older healthy human adults, plasma | oral, 125 mg single dose, fed, mean | 5290 ng/mL |
| NCCCS(=O)(=O)O |  | human, plasma | oral, 100 mg modified-release tablet, single dose | 506 ± 187 ng/mL |
| COc1ccnc(C[S+]([O-])c2nc3ccc(OC(F)F)cc3[nH]2)c1OC (centres unmarked) |  | human, CYP2C19 ultrarapid metabolizers, plasma | oral, 40 mg/day, day 5 | 4140 ng/mL |
| CN1C(=O)[C@@H](NC(=O)c2nnc(Cc3ccccc3)[nH]2)COc2ccccc21 |  | human male, plasma | oral, 120 mg twice daily, day 1 | 1720 ng/mL |
| CC(C)(C(=O)NCC(F)(F)C(F)(F)F)C(=O)N[C@@H]1C(=O)Nc2ccccc2-c2ccccc21 |  | human, plasma | oral, 5 mg, day 15, with: bevacizumab | 117 ng/mL |
| CN1CCc2nc(C(=O)N[C@@H]3C[C@@H](C(=O)N(C)C)CC[C@@H]3NC(=O)C(=O)Nc3ccc(Cl)cn3)sc2C1 |  | healthy humans ABCB1 rs1045642 CC, plasma | oral, 60 mg single dose | 246 ± 96.6 ng/mL |
| Cc1[nH]c2ccccc2c1CCNCc1ccc(/C=C/C(=O)NO)cc1 |  | human | 20 mg, day 15, with: IM 400 mg | 15.6 ng/mL |
| CC(C)(/C=C(\C#N)C(=O)N1CCC[C@@H](n2nc(-c3ccc(Oc4ccccc4)cc3F)c3c(N)ncnc32)C1)N1CCN(C2COC2)CC1 |  | human, plasma | oral, 100 mg single dose, mean | 34 ng/mL |
| C=C(C)[C@@H]1CC[C@]2(NCCN3CCS(=O)(=O)CC3)CC[C@]3(C)[C@H](CC[C@@H]4[C@@]5(C)CC=C(C6=CC[C@@](CF)(C(=O)O)CC6)C(C)(C)[C@@H]5CC[C@]43C)[C@@H]12 |  | human, HIV-1 treatment-naive, plasma | oral, 200 mg single with food, day 1 | 940 ng/mL |
| CC(=O)O[C@H]1C(=O)[C@@]2(C)[C@H]([C@H](OC(=O)c3ccccc3)[C@]3(O)C[C@H](OC(=O)[C@H](O)[C@@H](NC(=O)c4ccccc4)c4ccccc4)C(C)=C1C3(C)C)[C@]1(OC(C)=O)CO[C@@H]1C[C@@H]2O |  | human patients on no protease inhibitor, plasma | iv, 100 mg/m^2 over 3 h, cycle 1 | 1010 ± 340 nM |
| C=CC(=O)N1CCC(CNc2ncnc(N)c2-c2ccc(Oc3ccccc3)cc2)CC1 |  | human, plasma | 500 mg, single dose, geometric mean | 1510 ng/mL |
| O=c1[nH]cc(F)c(=O)[nH]1 |  | human, plasma | intravenous, 2400 mg/m^2 maintenance, cycle 1 without vorinostat, once-daily cohort | 17300 ± 2970 ng/mL |
| N[C@]1(C(=O)O)[C@H]2[C@@H](C[C@@H]1F)[C@@H]2C(=O)O |  | human, fed, plasma | oral, 10 mg multiple, day 14 | 37.7 ng/mL |

A few entries again:
| SMILES | test | test system | conditions | Cmax |
| --- | --- | --- | --- | --- |
| C#C[C@]1(CO)O[C@@H](n2cnc3c(N)nc(F)nc32)C[C@@H]1O |  | human, plasma | oral, 30 mg once weekly, week 1 | 647 nM |
| Cc1ccc(NC(=O)c2ccc(CN3CCN(C)CC3)cc2)cc1Nc1nccc(-c2cncc(-c3oncc3C)c2)n1 |  | older healthy human adults, plasma | oral, 125 mg single dose, fed, mean | 5290 ng/mL |
| NCCCS(=O)(=O)O |  | human, plasma | oral, 100 mg modified-release tablet, single dose | 506 ± 187 ng/mL |
| COc1ccnc(C[S+]([O-])c2nc3ccc(OC(F)F)cc3[nH]2)c1OC (centres unmarked) |  | human, CYP2C19 ultrarapid metabolizers, plasma | oral, 40 mg/day, day 5 | 4140 ng/mL |
| CN1C(=O)[C@@H](NC(=O)c2nnc(Cc3ccccc3)[nH]2)COc2ccccc21 |  | human male, plasma | oral, 120 mg twice daily, day 1 | 1720 ng/mL |
| CC(C)(C(=O)NCC(F)(F)C(F)(F)F)C(=O)N[C@@H]1C(=O)Nc2ccccc2-c2ccccc21 |  | human, plasma | oral, 5 mg, day 15, with: bevacizumab | 117 ng/mL |
| CN1CCc2nc(C(=O)N[C@@H]3C[C@@H](C(=O)N(C)C)CC[C@@H]3NC(=O)C(=O)Nc3ccc(Cl)cn3)sc2C1 |  | healthy humans ABCB1 rs1045642 CC, plasma | oral, 60 mg single dose | 246 ± 96.6 ng/mL |
